{"data": "Measured values gathered from unrelated publications", "note": "Compare with care: the assays were run in different laboratories. ± gives the spread as reported."}
{"Compound": "O=C([O-])CN1CCN(CC(=O)[O-])CCN(CC(=O)NCCc2ccc3c(c2)C2C=CCC2C(c2cc4c(cc2Br)OCO4)N3)CCN(CC(=O)[O-])CC1.[111In+3] (centres unmarked)", "test system": "mouse, Hec50 endometrial tumour, brain", "setting": "1 h post injection", "tissue uptake": "0.16 ± 0.08 %ID/g"}
{"Compound": "OCc1cn(Cc2ccc(-c3noc(-c4ccc(OCC[18F])c(C(F)(F)F)c4)n3)cc2)nn1", "test system": "female Lewis rat, fat", "setting": "intravenous, 30 min", "tissue uptake": "0.62 ± 0.1 %ID/g"}
{"Compound": "CC(C)[C@H](NC(=O)[C@@H]1CCCN1C(=O)[C@H](CCCNC(=N)N)NC(=O)[C@H](CS)NC(=O)[C@H](Cc1c[nH]c2ccccc12)NC(=O)[C@H](CCCNC(=N)N)NC(=O)[C@@H](Cc1ccccc1)NC(=O)[C@H](Cc1c[nH]cn1)NC(=O)[C@H](CCC(=O)O)NC(=O)[C@H](CS)NC(=O)[C@H](CS)NC(=O)CNC(=O)[C@@H]1CC(=O)N[C@@H](CCCNC(=N)N)C(=O)NCC(=O)N[C@@H](CC(=O)O)C(=O)N[C@H](Cc2ccc(O)cc2)C(=O)N1)C(N)=O [technetium-99m labelled]", "test system": "C57 mouse, female, B16/F1 melanoma, spleen", "setting": "intravenous, 0.037 MBq, 0.5 h", "tissue uptake": "2.32 ± 1.1 %ID/g"}
{"Compound": "CCCC[C@@H]1NC(=O)[C@@H](NC(=O)[C@H](CCC(=O)O)NC(=O)CNC(=O)CN2CCN(CC(=O)O)CCN(CC(=O)O)CCN(CC(=O)O)CC2)CCCCNC(=O)C[C@@H](C(N)=O)NC(=O)[C@H](C(C)C)NC(=O)[C@@H]2CCCN2C(=O)[C@H](CCCNC(=N)N)NC(=O)CNC(=O)[C@H](Cc2c[nH]c3ccccc23)NC(=O)[C@H](CCCNC(=N)N)NC(=O)[C@@H](Cc2ccccc2)NC(=O)[C@H](Cc2c[nH]cn2)NC(=O)[C@H](CCC(=O)O)NC1=O [gallium-67 labelled]", "test system": "C57 mice with B16/F1 melanoma, brain", "setting": "intravenous, 2 h", "tissue uptake": "0.01 ± 0.01 %ID/g"}
{"Compound": "CC(C)[C@H](NC(=O)[C@@H]1CCCN1C(=O)[C@H](CCCNC(=N)N)NC(=O)[C@H](CS)NC(=O)[C@H](Cc1c[nH]c2ccccc12)NC(=O)[C@H](CCCNC(=N)N)NC(=O)[C@@H](Cc1ccccc1)NC(=O)[C@H](Cc1c[nH]cn1)NC(=O)[C@H](CCC(=O)O)NC(=O)[C@H](CS)NC(=O)[C@H](CS)NC(=O)[C@@H]1CC(=O)N[C@@H](CCCNC(=N)N)C(=O)NCC(=O)N[C@@H](CC(=O)O)C(=O)N[C@H](Cc2ccc(O)cc2)C(=O)N1)C(N)=O [technetium-99m labelled]", "test system": "C57 mouse, female, B16/F1 melanoma, stomach", "setting": "intravenous, 0.037 MBq, 4 h", "tissue uptake": "0.85 ± 0.19 %ID/g"}
{"Compound": "CCCC[C@H](NC(=O)CNC(=O)CNC(=O)CN1CCN(CC(=O)O)CCN(CC(=O)O)CCN(CC(=O)O)CC1)C(=O)N[C@H]1CC(=O)NCCCC[C@@H](C(N)=O)NC(=O)[C@H](Cc2c[nH]c3ccccc23)NC(=O)[C@H](CCCNC(=N)N)NC(=O)[C@@H](Cc2ccccc2)NC(=O)[C@H](Cc2c[nH]cn2)NC1=O [copper-64 labelled]", "test system": "C57 mouse female B16/F1 melanoma, intestines", "setting": "intravenous, 0.037 MBq, 4 h", "tissue uptake": "12.5 ± 2.98 %ID"}
{"Compound": "CN1C(=O)[C@@H](Cc2ccc(O)c(I)c2)NC(=O)CNC(=O)[C@H](Cc2ccc3ccccc3c2)NC(=O)[C@H](CCCNC(=N)N)NC(=O)[C@H]1CCCNC(=O)c1ccc(CNC(=O)CN2CCN(CC(=O)O)CCN(CC(=O)O)CCN(CC(=O)O)CC2)cc1 [lutetium-177 labelled]", "assay": "refers to: 177Lu radioactivity", "test system": "female CB-17 SCID mice, Daudi xenograft, large intestine", "setting": "intravenous, 0.16 nmol per mouse, 48 h", "tissue uptake": "0.25 ± 0.1 %ID/g"}
{"Compound": "CCCC[C@H](NC(=O)CNC(=O)CNC(=O)CN1CCN(CC(=O)O)CCN(CC(=O)O)CCN(CC(=O)O)CC1)C(=O)N[C@H]1CC(=O)NCCCC[C@@H](C(N)=O)NC(=O)[C@H](Cc2c[nH]c3ccccc23)NC(=O)[C@H](CCCNC(=N)N)NC(=O)[C@@H](Cc2ccccc2)NC(=O)[C@H](Cc2c[nH]cn2)NC1=O [lead-203 labelled]", "test system": "C57 mouse, stomach", "setting": "intravenous, 0.056 MBq, 2 h", "tissue uptake": "0.55 ± 0.16 %ID/g"}
{"note": "Repeated from above:"}
{"Compound": "CCCC[C@@H]1NC(=O)[C@@H](NC(=O)[C@H](CCC(=O)O)NC(=O)CNC(=O)CN2CCN(CC(=O)O)CCN(CC(=O)O)CCN(CC(=O)O)CC2)CCCCNC(=O)C[C@@H](C(N)=O)NC(=O)[C@H](C(C)C)NC(=O)[C@@H]2CCCN2C(=O)[C@H](CCCNC(=N)N)NC(=O)CNC(=O)[C@H](Cc2c[nH]c3ccccc23)NC(=O)[C@H](CCCNC(=N)N)NC(=O)[C@@H](Cc2ccccc2)NC(=O)[C@H](Cc2c[nH]cn2)NC(=O)[C@H](CCC(=O)O)NC1=O [gallium-67 labelled]", "test system": "C57 mice with B16/F1 melanoma, brain", "setting": "intravenous, 2 h", "tissue uptake": "0.01 ± 0.01 %ID/g"}
